Measurements gathered from unrelated publications.
Compare with care: the assays were run in different laboratories. “And” joins repeats or separate records; there may be more than shown. Numbers after ± are the reported error.
CTSB: Cathepsin B (CTSB, Homo sapiens, UniProt P07858)

Cc1ccc(N2CCC3(CC2)CN(C)C3)cc1C(=O)N[C@H](C)c1cc(-c2cnn(C)c2)nc2ccccc12
viability (Vero E6; 125 µM): 3.04% and 2.68% and 3.75%

CCCNC(=O)[C@H]1O[C@@H]1C(=O)N[C@H](C(=O)N1CCC[C@H]1C(=O)OCC1=C2C(C)=CC(C)=[N+]2[B-](C)(C)n2c(C)cc(C)c21)[C@@H](C)CC
Ki (CTSB; irreversible inactivation, inhibitor; concentration not given, pH 5.5, 25 °C, in dark, added: Z-Arg-Arg-AMC): 320 ± 3000 µM

CCC(C(=O)Nc1ccccc1C)n1cccc2nc(SCc3ccc(F)cc3)nc1-2 (stereo not shown)
IC50 (CTSB; enzyme activity, inhibitor): > 100 µM

CC(C)C[C@H](NC(=O)[C@H]1O[C@@H]1C(=O)O)C(=O)NCCCCN=C(N)N
IC50 (CTSB; enzyme activity, inhibitor): 0.015 µM

CCC(C(=O)Nc1ccccc1C)n1c(SCc2ccc(F)cc2)nc2ncccc21 (stereo not shown)
IC50 (CTSB; enzyme activity, inhibitor): > 100 µM

CC[C@H](C)[C@H](NC(=O)[C@@H]1CCCN1C(=O)CNC(=O)[C@H](CC(N)=O)NC(=O)CNC(=O)[C@H](CC(=O)O)NC(=O)[C@@H]1CCC(=O)O[C@H](C)[C@H](NC(=O)[C@@H](NC(=O)[C@H](Cc2ccccc2)NC(=O)[C@@H](NC(=O)[C@H](CCCCN)NC(=O)CNC(=O)[C@H](CC(=O)O)NC(=O)CNC(=O)[C@@H](NC(=O)CNC(=O)[C@H](CC(=O)O)NC(=O)[C@@H]2CCC(=O)O[C@H](C)[C@H](NC(=O)[C@@H](NC(=O)[C@H](CC(C)C)NC(=O)[C@H](CCCCN)NC(=O)[C@H](Cc3ccccc3)NC(=O)[C@H](CC(=O)O)NC(=O)CNC(=O)[C@H](CCCCN)NC(=O)[C@H](CC(C)C)NC(=O)[C@H](CO)NC(=O)CN)C(C)C)C(=O)N[C@@H](CCSC)C(=O)N[C@@H](CCCCN)C(=O)N[C@@H](C(C)C)C(=O)N3CCC[C@H]3C(=O)N2)C(C)C)C(C)C)[C@@H](C)O)C(=O)N[C@@H](C)C(=O)N[C@@H](CC(C)C)C(=O)NCC(=O)N1)C(=O)N[C@@H](Cc1ccc(O)cc1)C(=O)N[C@@H]1C(=O)N[C@@H]2C(=O)N[C@@H](CCC(N)=O)C(=O)N[C@@H](C)C(=O)N[C@@H](C(C)C)C(=O)NCC(=O)N[C@@H](CCC(=O)O[C@@H]2C)C(=O)N[C@H](C(=O)NCC(=O)NCC(=O)N[C@@H](CC(=O)O)C(=O)N[C@@H](CC(C)C)C(=O)N2CCC[C@H]2C(=O)N2CCC[C@H]2C(=O)N[C@@H](CC(C)C)C(=O)N[C@@H](Cc2ccccc2)C(=O)O)CCC(=O)O[C@@H]1C
IC50 (CTSB; enzyme activity, inhibitor): > 200 µM

O=C1NC2(CC2)COc2ncc(F)cc2[C@H]2COCCN2c2ccn3ncc1c3n2
organ-to-body weight ratio (Sprague-Dawley rat, male, liver; oral, 2.5 mg/kg/day, 4 weeks, end of treatment): 3.12 ± 0.132%

CCCNC(=O)[C@H]1O[C@@H]1C(=O)N[C@H](C(=O)N1CCC[C@H]1C(=O)OCC1=C2C(C)=CC(C)=[N+]2[B-](CC)(CC)n2c(C)cc(C)c21)[C@@H](C)CC
Ki (CTSB; irreversible inactivation, inhibitor; concentration not given, pH 5.5, 25 °C, in dark, added: Z-Arg-Arg-AMC): 350 ± 2000 µM

CNC(=O)C[C@H](Cc1ccc(F)cc1)NC(=O)[C@@H](Cc1ccc(Cl)cc1Cl)NC(=O)[C@H](N)Cc1ccccc1C#N
IC50 (CTSB; enzyme activity, inhibitor; human liver): > 10 µM

CC(C)C[C@@H]1NC(=O)[C@H](CC(=O)O)NC(=O)CNC(=O)[C@H](CCCNC(=N)N)NC(=O)[C@H](Cc2ccccc2)NC(=O)[C@H](CCCCNC(=O)CCc2cn(CCCNC(=O)CN3CCN(CC(=O)O)CCN(CC(=O)O)CCN(CC(=O)O)CC3)nn2)N(C)C(=O)[C@H]2CCCN2C(=O)[C@H](Cc2ccccc2)NC(=O)[C@H](C)NC1=O
tissue-to-tissue ratio (female CB17 SCID mice, tumour and lung; intravenous, dose not given, 90 min, 177Lu-labelled; relative to: tumour over lung): 1.3 ± 0.8

CC(C)CC(C(=O)N1CC2(CC1C#N)C(=O)Nc1ccccc12)N(C)C(=O)c1cc2c(F)cc(F)c(F)c2[nH]1 (stereo not shown)
IC50 (CTSB; enzyme activity, inhibitor): > 100 µM

Cc1ccc(OCCN(C)C)cc1C(=O)N[C@H](C)c1cc(-c2ccco2)nc2ccccc12
viability (Vero E6; 250 µM): 7.88% and 9.04%

CC[C@H](C)[C@H](NC(=O)[C@@H]1CCCN1C(=O)CNC(=O)[C@H](CC(N)=O)NC(=O)CNC(=O)[C@@H]1CC(=O)O[C@H](C)[C@H](NC(=O)[C@H](Cc2ccccc2)NC(=O)[C@@H](NC(=O)[C@H](CCCCN)NC(=O)CNC(=O)[C@H](CC(=O)O)NC(=O)CNC(=O)[C@@H](NC(=O)CNC(=O)[C@H](CC(=O)O)NC(=O)[C@@H]2CCC(=O)O[C@H](C)[C@H](NC(=O)[C@@H](NC(=O)[C@H](CC(C)C)NC(=O)[C@H](CCCCN)NC(=O)[C@H](Cc3ccccc3)NC(=O)[C@H](CC(=O)O)NC(=O)CNC(=O)[C@H](CCCCN)NC(=O)[C@H](CC(C)C)NC(=O)[C@H](CO)NC(=O)CN)C(C)C)C(=O)N[C@@H](CCSC)C(=O)N[C@@H](CCCCN)C(=O)N[C@@H](C(C)C)C(=O)N3CCC[C@H]3C(=O)N2)C(C)C)C(C)C)C(=O)N[C@@H]2C(=O)N[C@@H](C)C(=O)N[C@@H](CC(C)C)C(=O)NCC(=O)N[C@@H](CCC(=O)O[C@@H]2C)C(=O)N1)C(=O)N[C@@H](Cc1ccc(O)cc1)C(=O)N[C@@H]1C(=O)N[C@@H]2C(=O)N[C@@H](CCC(N)=O)C(=O)N[C@@H](C)C(=O)N[C@@H](C(C)C)C(=O)NCC(=O)N[C@@H](CCC(=O)O[C@@H]2C)C(=O)N[C@H](C(=O)NCC(=O)NCC(=O)N[C@@H](CC(=O)O)C(=O)N[C@@H](CC(C)C)C(=O)N2CCC[C@H]2C(=O)N2CCC[C@H]2C(=O)N[C@@H](CC(C)C)C(=O)N[C@@H](Cc2ccccc2)C(=O)O)CCC(=O)O[C@@H]1C
IC50 (CTSB; enzyme activity, inhibitor): > 200 µM
